Measurements of several laboratories.
Lines come from different studies, so protocols differ.

SMILES | technique | species | matrix | route | dose | notes | AUC(0-t)
CC12CC3CC(C)(C1)CC(NC(=O)Nc1ccc(C(=O)N4CCC[C@H](C(N)=O)C4)cc1F)(C3)C2 |  | Sprague-Dawley rat | plasma | oral | 50 mg/kg |  | 5.57 µM·h
CC1(C)C2CCC1(C)C(OC(=O)/C=C/c1ccc(O)c(O)c1)C2 (centres unmarked) |  | Sprague-Dawley rat | plasma | oral | 30 mg/kg |  | 1470 ng·h/mL
Cn1cc(-c2cc(N3CCCCS3(=O)=O)ccc2N[C@H]2CC[C@H](C)CC2)c2cc[nH]c2c1=O (stereo in doubt) |  | Sprague-Dawley rat | plasma | intravenous | 1 mg/kg |  | 300 ng·h/mL
COc1cc(NC(C)=O)c2c(c1O)-c1c(OC)c(OC)cc3c1C(C2)N(C)CC3 (centres unmarked) | HPLC | male Wistar rat | plasma | intravenous | 100 mg/kg |  | 36200 ng·h/mL
COC(=O)c1ccc2c(c1)NC(=O)/C2=C(\Nc1ccc2c(c1)CCN2C(=O)CN1CCOCC1)c1ccccc1 |  | Sprague-Dawley rat | plasma | intravenous | 2 mg/kg |  | 1880 ng·h/mL
COc1ccc2c(c1OCc1ccccc1)C[C@@H](C(=O)O)N(c1nc3ccc(C#N)cc3o1)C2 |  | male Sprague-Dawley rat | plasma | oral | 10 mg/kg |  | 44100 ng·h/mL
CSCOC1C(=O)C2(C)C(OCSC)CC3OCC3(OC(C)=O)C2C(OC(=O)c2ccccc2)C2(O)CC(OC(=O)C(O)C(C=C(C)C)NC(=O)OC(C)(C)C)C(C)=C1C2(C)C (centres unmarked) |  | female Sprague-Dawley rat | plasma | intravenous | 2 mg/kg |  | 215 ng·h/mL
Cc1ccc(OCC(=O)N(Cc2cccs2)c2ccn[nH]2)cc1 |  | male Sprague-Dawley rat | plasma | oral | 100 mg/kg | single dose | 50.1 ng·h/mL
Cn1cc(-c2cc(N3CCCS3(=O)=O)ccc2N[C@H]2CC[C@H](C)CC2)c2cc[nH]c2c1=O |  | Sprague-Dawley rat | plasma | intravenous | 1 mg/kg |  | 255 ng·h/mL
CC12CC3CC(C)(C1)CC(NC(=O)Nc1ccc(C(=O)N4CCCC(C(N)=O)C4)cc1)(C3)C2 (centres unmarked) |  | Sprague-Dawley rat | plasma | intravenous | 10 mg/kg |  | 10.1 µM·h
O=C(N[C@@H](CC1CCCCC1)C(=O)N[C@@H](C[C@H]1CCNC1=O)C(=O)C(=O)NC1CC1)OCc1cccc(Cl)c1 |  | female Sprague-Dawley rat | plasma | oral | 10 mg/kg | single dose | 3370 ng·h/mL
N#Cc1cnc2cc(OCC3CCNCC3)c(F)cc2c1Nc1cc(F)c(OCc2cccc(Cl)n2)cc1Cl |  | male Sprague-Dawley rat | plasma | oral | 300 mg/kg |  | 69900 ng·h/mL
CC1(C)CC[C@]2(C(=O)O[C@@H]3O[C@H](CO[C@@H]4O[C@H](CO)[C@@H](O)[C@H](O)[C@H]4O)[C@@H](O)[C@H](O)[C@H]3O)CC[C@]3(C)C(=CC[C@@H]4[C@@]5(C)CC[C@H](O[C@@H]6OC[C@H](O)[C@H](O)[C@H]6O)[C@@](C)(CO)[C@@H]5CC[C@]43C)[C@@H]2C1 |  | Sprague-Dawley rat | plasma | oral | 150 mg/kg |  | 3890 ng·h/mL
COc1c2c(cc3oc(CO)cc(=O)c13)O[C@H](C(C)(C)O)C2 |  | male Sprague-Dawley rat | plasma | oral | 2 mg/kg |  | 402 ng·h/mL
COc1ccc(COc2c(OC)ccc3c2C[C@@H](C(=O)O)N(c2nc4ccc(F)cc4o2)C3)cc1 |  | male Sprague-Dawley rat | plasma | oral | 10 mg/kg |  | 6930 ng·h/mL
NC(=O)c1cccnc1.O.O=c1[nH]cc(F)c(=O)[nH]1.O=c1[nH]cc(F)c(=O)[nH]1.O=c1[nH]cc(F)c(=O)[nH]1 |  | rat | plasma | oral | 0.06 mmol/kg |  | 14 µM·h
Nc1nc(Cl)nc2c1ncn2Cc1cc(OCC(F)F)cc(OC(F)F)c1 |  | Sprague-Dawley rat | plasma | intravenous | 2.5 mg/kg |  | 10100 ng·h/mL
COCCCN1CCc2c(Cc3ccc(Cl)cc3)[nH]c3c(OC(F)F)ccc(c23)C1=O |  | male Sprague-Dawley rat | blood | intravenous | 2.5 mg/kg |  | 1120 ng·h/mL
CNC(=O)N[C@]1(C)CCC[C@@]2(C)C3CC[C@@]4(C)C[C@]3(CCC21)CC4=O (single isomer, unassigned) |  | male Sprague-Dawley rat | plasma | intravenous | 2 mg/kg |  | 1090 ng·h/mL
Cc1cc(/C=C2\CN(C(C)C)C/C(=C\c3cc(C)c(O)c(C)c3)C2=O)cc(C)c1O |  | female Sprague-Dawley rat | plasma | intravenous | 20 mg/kg |  | 1340 ng·h/mL

A few entries again:
SMILES | technique | species | matrix | route | dose | notes | AUC(0-t)
Nc1nc(Cl)nc2c1ncn2Cc1cc(OCC(F)F)cc(OC(F)F)c1 |  | Sprague-Dawley rat | plasma | intravenous | 2.5 mg/kg |  | 10100 ng·h/mL
